Measurements collected from several papers.
Numbered parts are unrelated; each lists some results of a single study.

Sample 1
Target: PABPC1L2, full length, GST fusion (mouse, UniProt A0ABA7IW68)
Technique: RNAcompete
Molecule type: RNA
Sample: in vitro
Tested at: 20 nM
Notes: 7-mer, probes averaged, single round
Reference: mean of 7-mers
Reading: higher = stronger binding
Residues (chain): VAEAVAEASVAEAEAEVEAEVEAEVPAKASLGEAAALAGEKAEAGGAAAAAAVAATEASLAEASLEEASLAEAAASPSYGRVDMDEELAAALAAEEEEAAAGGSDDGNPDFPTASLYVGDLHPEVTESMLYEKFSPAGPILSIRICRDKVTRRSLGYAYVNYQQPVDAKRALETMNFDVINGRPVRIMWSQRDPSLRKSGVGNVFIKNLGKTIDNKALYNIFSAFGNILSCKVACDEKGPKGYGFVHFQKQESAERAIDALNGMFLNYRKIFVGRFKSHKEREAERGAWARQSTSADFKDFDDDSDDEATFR
| Sequence | 7-mer Z-score |
| --- | --- |
| UUGAGCU | -0.253 |
| ACGACGA | 0.234 |
| CGGGUAC | 0.0768 |
| UAUAGCA | 0.00798 |
| CCUCGAA | -0.173 |
| CCUUGUU | -0.465 |
| ACGGAUC | 0.0986 |
| GAGGCUA | 0.171 |
| AGAAUUG | -0.113 |
| UGCUACC | -0.371 |
| AAACGUA | 0.773 |
| UGCGCUU | -0.202 |
| AAUAAUG | 0.492 |
| CCCAUGA | -0.277 |
| ACAGUGG | 0.227 |
| ACUUUGU | -0.385 |
| UGCGAGG | 0.182 |
| AGAACAC | 0.0243 |
| GGAGCGC | 0.0243 |
| GUGAUAC | -0.0971 |
| GGAUUAC | 0.0714 |
| AUCGACG | -0.00652 |
| CAUUACG | -0.0826 |
| UUACAUG | -0.0264 |
| UUACUUG | -0.0319 |

Sample 2
Target: Histone acetyltransferase KAT6A, winged helix 2, GST fusion (KAT6A, Homo sapiens, UniProt Q92794, residues 85-181)
Technique: protein binding microarray
Molecule type: double-stranded DNA, one strand shown
Sample: in vitro
Tested at: not given
Notes: 8-mer, flanks averaged, mean of 2 arrays, mostly near background
Reference: not given
Reading: higher = stronger binding
Residues (chain): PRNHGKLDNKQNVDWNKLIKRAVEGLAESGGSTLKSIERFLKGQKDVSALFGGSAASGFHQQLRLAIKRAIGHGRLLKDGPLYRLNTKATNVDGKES
| Sequence | E-score |
| --- | --- |
| CCGTCAGC | -0.0308 |
| GGATAGGA | -0.0833 |
| GCACGCCC | 0.191 |
| GAACCAGA | -0.0402 |
| GACCGTAA | -0.0243 |
| GGTACTCA | -0.0553 |
| AGTCCTAT | -0.201 |
| ACTTTGTG | 0.131 |
| CGAAGTGC | 0.168 |
| AGACCGCA | 0.154 |
| CGTTAACA | -0.0458 |
| AGCCGCCT | 0.113 |
| GAAAGCAC | 0.126 |
| AACCACAA | -0.00198 |
| ATAGGGAT | -0.0985 |
| CCCAGTCC | -0.0271 |
| ATCCGCAG | 0.204 |
| CAAATTAC | -0.0365 |
| AAGTGCGC | 0.036 |
| CGGATCAG | 0.114 |
| AGCACTCA | -0.0835 |
| CCCTGACG | -0.0254 |
| AACCATTC | -0.067 |
| CTCTCGTC | 0.0733 |
| AAAGCTGC | -0.0188 |

Sample 3
Target: RNA binding protein fox-1 homolog 2, RRM domain, GST-SBP tag (RBFOX2, Homo sapiens, UniProt O43251-10, residues 100-194)
Technique: RNA Bind-n-Seq
Molecule type: RNA
Sample: in vitro
Tested at: 365 nM
Notes: natural RNA segment, single round, ends assumed
Reference: no-protein control
Reading: higher = stronger binding
Target sequence (chain): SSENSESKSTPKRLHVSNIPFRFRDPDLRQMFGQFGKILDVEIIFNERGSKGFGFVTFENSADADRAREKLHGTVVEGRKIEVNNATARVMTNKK
| Sequence | RBNS enrichment (R) |
| --- | --- |
| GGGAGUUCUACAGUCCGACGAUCCUUCAAACCACAUGAGAUCUCUGCCACCCACCCACAAUCAAGCCCUAUAUUCCCAAGGAGGCUGACUCCGGGGGCCCUUCCCCCCAGGCCAGCAAUGUAUUCCGGGGAUGUGGAAUUCUCGGGUGCCAA | 0.325 |
| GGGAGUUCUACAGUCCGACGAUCUGUUGUGUGUCCAGGGAAAUUCACAGCUCAGUAUGAGAAUACCUUGGUUAGUGCUCACCCACAAGCUUCCAGGAGCCAGCUGGGAGGAGACAAUAGGAAGAGAUGUCAUCUGGAAUUCUCGGGUGCCAA | 0.218 |
| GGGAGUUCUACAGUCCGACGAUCUUCAUAAAUGAUAAAUGAUUCUGAAUGUUAGUGUUUUAUGUUCAUAUAGGAAAUAUUUUCAUUGAGUCCAAAAUACCACUGUUUUGUUGAUGGACUUGAAUGCAUUUUUGUGGAAUUCUCGGGUGCCAA | 2.01 |
| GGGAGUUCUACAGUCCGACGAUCAAAAAAUGUUUACACUCUGCAGAUUGAUUUUUUUUUUUUAGUACUGUGGCUUUCUUUUCCUAUUUUAUGAAAAAAAUGAUAAUCUUUUUGUAAAAUUGUCUGUGAAAUAUUGGAAUUCUCGGGUGCCAA | 0.707 |
| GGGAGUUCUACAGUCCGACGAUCAAAUUUUCCUUAGGCCGCAGAAAUCCUGCACUGUGAGCAUUUCAGAAGAGGUAUGUGAGACCCAGUUCAACGACAGCAUGAUUUUUUAAAUGGCUGUAAGUUAUGAUAAGUGGAAUUCUCGGGUGCCAA | 0.673 |
| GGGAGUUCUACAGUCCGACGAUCCCGCUGGUGAAUGGAGUACCUAAAUAAGCUACAUAAUUCCGAAGUUAUAUUUCCUCUACCAUUUCCGUAAUUCUUACUCCAUUUUAGAAAACUUUGUUAGGCCAAAGACAUGGAAUUCUCGGGUGCCAA | 0.458 |
| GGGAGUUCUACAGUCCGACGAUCCUAAUAGUGUCUGAACAUGGUUCAAGAAUAAGAGAUUCCAUGUAGCAUUUUCUUUAUUAUUUUCAUUUCCCUUAUAUUAUCCAUCAUUCCUUAAGGACAAUUAUUCUUAAUGGAAUUCUCGGGUGCCAA | 1.08 |
| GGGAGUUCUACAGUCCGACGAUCUUUAUCAGCCAUGUUUGGUUGUAAAUGCUCGUGUGAUUUCCUACAGAAAUACUGCUCUGAAUAUUUUGUAAUAAAGGUCUUUGCACAUGUGACCACAUACGUGUUAGGAGUGGAAUUCUCGGGUGCCAA | 0.821 |
| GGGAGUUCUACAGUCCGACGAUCAAGCGAUUCUCCUACCUCAGCCUCCUCAGUAGCUGAGAUUACAGGCAUGCACCACCAUGCCCGGCUAAUUUUUUUGUGUUUUUAGUAGAGAUGGGGUUUCACCGUGCUGGUGGAAUUCUCGGGUGCCAA | 0.748 |
| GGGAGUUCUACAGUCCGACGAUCACGUACGCAGUGUUUACUCAGUGUGGCUCCCGCCUCAGACUGAAUUAAAGUAUUACUAUAGCAUGCCUCUCAGAACUGCUAGCUUCCUAAUAAACCACAAAUCCACCGUUUGGAAUUCUCGGGUGCCAA | 1.81 |
| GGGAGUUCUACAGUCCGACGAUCGCUCCAUGCUGAAGGCUCCCAUUUUCAGUUCCCUCCUGCCCAGGACUGCAUUGUUUUCUAGCCCCGAGGUGGUGGCACGGGCCCUCCCUCCCAGCGCUCUGGGAGCCACGUGGAAUUCUCGGGUGCCAA | 0.436 |
| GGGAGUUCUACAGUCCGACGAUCGACUCCACUCACGGGCCAAGUUUGGCCCAGUCAUUUUUGUAUGGGGAAAAAACUAAAAAGGUUUUUUACAUUUUUAAAAGGAAGACAUUCGUGACUGAGACCAUACGUGGUGGAAUUCUCGGGUGCCAA | 0.567 |

Sample 4
Target: Transcriptional repressor CTCF (CTCF, Homo sapiens, UniProt P49711, residues 1-727, full length assumed)
Technique: protein-binding microarray
Molecule type: double-stranded DNA, one strand shown
Sample: in vitro
Tested at: not given
Notes: k-mer, scored over probes, only values ≥0.25
Reading: higher = stronger binding
Residues (chain): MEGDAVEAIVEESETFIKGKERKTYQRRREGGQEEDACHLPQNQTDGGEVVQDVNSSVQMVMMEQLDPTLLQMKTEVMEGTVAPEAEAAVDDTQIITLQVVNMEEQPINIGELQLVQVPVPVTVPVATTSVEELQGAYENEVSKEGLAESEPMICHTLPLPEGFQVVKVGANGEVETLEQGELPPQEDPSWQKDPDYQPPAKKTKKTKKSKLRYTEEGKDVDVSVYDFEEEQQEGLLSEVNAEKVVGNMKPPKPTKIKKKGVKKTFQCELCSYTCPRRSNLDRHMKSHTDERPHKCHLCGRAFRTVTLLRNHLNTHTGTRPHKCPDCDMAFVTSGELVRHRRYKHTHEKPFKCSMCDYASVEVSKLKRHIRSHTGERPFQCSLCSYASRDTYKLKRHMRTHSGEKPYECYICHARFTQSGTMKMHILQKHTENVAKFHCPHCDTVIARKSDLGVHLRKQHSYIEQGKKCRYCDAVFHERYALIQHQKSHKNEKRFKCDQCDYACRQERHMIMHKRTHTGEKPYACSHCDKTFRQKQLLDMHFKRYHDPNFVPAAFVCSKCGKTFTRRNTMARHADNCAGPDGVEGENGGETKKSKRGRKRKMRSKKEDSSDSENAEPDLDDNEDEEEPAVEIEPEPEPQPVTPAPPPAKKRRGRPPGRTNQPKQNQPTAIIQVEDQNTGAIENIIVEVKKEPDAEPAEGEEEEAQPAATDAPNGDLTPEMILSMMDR
| Sequence | E-score |
| --- | --- |
| CATACATG | 0.356 |
| GCGAATTA | 0.281 |
| CCCCTATC | 0.253 |
| ATAACAGA | 0.277 |
| TGCATTAA | 0.272 |
| ATTGCGTA | 0.28 |
| AAATTATT | 0.285 |
| AGATATTA | 0.283 |
| ATTGCGCC | 0.361 |
| GCGCACCA | 0.316 |
| GCGCGCAA | 0.39 |
| AACTTACG | 0.275 |
| ATTTACGC | 0.312 |
| GCGCGTAC | 0.279 |
| ATGATCAA | 0.26 |
| ATTAAGTA | 0.31 |

Mixed results
| Substance | target | assay | test system | setting | scale | measurement | value |
| --- | --- | --- | --- | --- | --- | --- | --- |
| PhoQ, residues 284 288 289 292 302 303 TNASYF | PhoP, residues 12 14 15 18 19 GQALL (Escherichia coli, UniProt P23836) | Sort-seq, measured: YFP reporter | E. coli | PhoQ-PhoP variant library, added: 10 µM Mg2+ | reference: high Mg2+ state, higher = stronger signaling | fold induction | 4.76 |
